Results gathered from unrelated publications.
Every numbered part comes from another study and shows a few of its results, in no order.
UniProt P35916, sequence (whole entry, looked up): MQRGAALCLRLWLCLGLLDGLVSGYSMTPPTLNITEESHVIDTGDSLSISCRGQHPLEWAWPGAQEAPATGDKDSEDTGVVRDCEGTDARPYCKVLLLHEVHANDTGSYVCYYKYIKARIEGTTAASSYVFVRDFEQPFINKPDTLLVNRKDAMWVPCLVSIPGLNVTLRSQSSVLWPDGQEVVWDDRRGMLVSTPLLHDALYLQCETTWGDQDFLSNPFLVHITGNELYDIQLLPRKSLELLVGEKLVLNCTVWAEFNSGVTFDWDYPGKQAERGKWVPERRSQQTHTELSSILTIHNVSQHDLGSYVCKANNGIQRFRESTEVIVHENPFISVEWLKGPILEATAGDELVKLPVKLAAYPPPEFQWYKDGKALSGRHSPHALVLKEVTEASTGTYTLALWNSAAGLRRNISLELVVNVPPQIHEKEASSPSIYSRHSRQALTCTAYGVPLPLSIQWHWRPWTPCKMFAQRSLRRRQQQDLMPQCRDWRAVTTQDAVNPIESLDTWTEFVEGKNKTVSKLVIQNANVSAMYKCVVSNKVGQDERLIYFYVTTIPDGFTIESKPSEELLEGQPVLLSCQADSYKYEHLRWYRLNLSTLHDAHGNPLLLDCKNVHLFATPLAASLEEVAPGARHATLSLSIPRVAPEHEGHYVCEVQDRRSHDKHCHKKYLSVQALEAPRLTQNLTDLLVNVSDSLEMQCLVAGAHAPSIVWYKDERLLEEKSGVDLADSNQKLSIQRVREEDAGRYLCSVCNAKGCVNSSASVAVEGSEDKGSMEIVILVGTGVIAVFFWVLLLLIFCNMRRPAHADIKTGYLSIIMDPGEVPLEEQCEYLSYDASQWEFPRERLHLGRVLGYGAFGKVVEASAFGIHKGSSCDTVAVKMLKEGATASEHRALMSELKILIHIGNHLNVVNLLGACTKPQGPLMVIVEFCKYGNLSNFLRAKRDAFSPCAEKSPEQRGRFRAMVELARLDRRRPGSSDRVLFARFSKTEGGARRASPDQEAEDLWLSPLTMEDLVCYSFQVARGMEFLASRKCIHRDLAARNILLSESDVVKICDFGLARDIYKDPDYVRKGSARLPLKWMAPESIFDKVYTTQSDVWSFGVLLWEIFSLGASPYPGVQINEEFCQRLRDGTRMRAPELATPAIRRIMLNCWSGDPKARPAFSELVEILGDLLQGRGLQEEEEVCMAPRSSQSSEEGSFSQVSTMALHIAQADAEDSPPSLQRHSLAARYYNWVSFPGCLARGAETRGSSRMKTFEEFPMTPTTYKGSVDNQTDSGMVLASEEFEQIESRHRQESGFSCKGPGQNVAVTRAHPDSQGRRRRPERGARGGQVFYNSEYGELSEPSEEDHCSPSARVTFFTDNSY
UniProt O43353, sequence (whole entry, looked up): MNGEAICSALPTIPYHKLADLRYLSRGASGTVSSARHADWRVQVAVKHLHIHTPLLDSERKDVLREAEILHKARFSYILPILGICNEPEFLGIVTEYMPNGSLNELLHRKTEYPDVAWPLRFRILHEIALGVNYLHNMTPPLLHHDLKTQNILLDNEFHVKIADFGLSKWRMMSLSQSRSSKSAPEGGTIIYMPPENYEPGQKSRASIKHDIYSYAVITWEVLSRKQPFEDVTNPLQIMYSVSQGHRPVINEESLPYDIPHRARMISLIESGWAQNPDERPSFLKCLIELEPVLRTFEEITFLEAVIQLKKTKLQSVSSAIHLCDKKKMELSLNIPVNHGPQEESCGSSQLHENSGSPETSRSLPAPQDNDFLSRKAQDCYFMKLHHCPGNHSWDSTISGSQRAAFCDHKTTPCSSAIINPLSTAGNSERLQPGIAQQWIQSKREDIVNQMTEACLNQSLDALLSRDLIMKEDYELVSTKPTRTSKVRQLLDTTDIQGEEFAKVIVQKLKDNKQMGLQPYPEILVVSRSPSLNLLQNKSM
UniProt O96013, sequence (whole entry, looked up): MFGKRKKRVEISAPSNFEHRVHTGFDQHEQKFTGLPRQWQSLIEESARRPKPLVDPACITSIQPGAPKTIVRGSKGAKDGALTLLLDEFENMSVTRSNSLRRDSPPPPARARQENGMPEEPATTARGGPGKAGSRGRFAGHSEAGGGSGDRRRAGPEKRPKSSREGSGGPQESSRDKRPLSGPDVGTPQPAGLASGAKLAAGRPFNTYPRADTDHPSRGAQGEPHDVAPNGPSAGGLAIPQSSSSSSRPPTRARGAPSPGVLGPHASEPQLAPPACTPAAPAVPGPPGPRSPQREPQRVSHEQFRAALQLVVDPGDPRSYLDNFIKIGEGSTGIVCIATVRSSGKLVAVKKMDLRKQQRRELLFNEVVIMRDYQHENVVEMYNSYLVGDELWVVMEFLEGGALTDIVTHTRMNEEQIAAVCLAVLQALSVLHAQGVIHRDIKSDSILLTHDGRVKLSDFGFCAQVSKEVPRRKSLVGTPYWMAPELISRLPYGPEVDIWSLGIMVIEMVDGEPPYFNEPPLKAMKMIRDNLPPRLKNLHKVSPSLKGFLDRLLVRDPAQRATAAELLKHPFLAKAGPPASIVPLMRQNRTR
UniProt Q9HCP0, sequence (whole entry, looked up): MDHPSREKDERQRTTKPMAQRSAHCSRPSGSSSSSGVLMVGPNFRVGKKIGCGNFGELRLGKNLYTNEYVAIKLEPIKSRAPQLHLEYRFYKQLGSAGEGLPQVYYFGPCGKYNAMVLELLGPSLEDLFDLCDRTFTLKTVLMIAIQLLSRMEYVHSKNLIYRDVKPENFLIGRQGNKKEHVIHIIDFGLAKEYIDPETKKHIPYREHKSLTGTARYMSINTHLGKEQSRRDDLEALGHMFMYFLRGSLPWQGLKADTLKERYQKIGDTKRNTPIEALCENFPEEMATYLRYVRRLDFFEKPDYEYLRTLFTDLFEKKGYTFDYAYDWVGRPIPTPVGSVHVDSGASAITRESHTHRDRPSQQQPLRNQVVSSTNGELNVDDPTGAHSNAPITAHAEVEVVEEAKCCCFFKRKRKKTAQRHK
UniProt P07333, sequence (whole entry, looked up): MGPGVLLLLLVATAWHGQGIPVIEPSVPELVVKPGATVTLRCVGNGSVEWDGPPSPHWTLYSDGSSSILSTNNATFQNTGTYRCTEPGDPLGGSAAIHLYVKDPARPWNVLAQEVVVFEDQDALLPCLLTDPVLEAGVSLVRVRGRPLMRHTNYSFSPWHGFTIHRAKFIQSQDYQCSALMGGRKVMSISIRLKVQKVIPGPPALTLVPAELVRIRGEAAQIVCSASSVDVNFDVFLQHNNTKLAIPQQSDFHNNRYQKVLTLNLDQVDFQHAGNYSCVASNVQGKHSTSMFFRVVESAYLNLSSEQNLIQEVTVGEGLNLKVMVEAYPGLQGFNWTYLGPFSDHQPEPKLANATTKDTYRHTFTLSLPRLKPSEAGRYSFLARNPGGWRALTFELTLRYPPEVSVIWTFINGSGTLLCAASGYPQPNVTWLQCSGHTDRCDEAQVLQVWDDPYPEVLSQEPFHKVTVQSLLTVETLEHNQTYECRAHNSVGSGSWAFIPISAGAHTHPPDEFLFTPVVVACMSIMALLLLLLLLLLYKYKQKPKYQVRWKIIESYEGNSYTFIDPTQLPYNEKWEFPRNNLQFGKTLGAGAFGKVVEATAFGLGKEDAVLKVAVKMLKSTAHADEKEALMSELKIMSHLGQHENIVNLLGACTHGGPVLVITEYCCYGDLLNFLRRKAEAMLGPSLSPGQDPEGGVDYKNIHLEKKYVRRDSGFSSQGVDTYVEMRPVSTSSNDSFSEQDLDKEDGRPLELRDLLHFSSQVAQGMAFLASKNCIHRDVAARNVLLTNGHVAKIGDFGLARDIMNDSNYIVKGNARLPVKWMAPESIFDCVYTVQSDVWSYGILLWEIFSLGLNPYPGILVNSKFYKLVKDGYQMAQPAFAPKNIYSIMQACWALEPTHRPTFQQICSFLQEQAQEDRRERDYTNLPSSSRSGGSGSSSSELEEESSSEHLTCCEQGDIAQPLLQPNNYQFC
UniProt Q9P286, sequence (whole entry, looked up): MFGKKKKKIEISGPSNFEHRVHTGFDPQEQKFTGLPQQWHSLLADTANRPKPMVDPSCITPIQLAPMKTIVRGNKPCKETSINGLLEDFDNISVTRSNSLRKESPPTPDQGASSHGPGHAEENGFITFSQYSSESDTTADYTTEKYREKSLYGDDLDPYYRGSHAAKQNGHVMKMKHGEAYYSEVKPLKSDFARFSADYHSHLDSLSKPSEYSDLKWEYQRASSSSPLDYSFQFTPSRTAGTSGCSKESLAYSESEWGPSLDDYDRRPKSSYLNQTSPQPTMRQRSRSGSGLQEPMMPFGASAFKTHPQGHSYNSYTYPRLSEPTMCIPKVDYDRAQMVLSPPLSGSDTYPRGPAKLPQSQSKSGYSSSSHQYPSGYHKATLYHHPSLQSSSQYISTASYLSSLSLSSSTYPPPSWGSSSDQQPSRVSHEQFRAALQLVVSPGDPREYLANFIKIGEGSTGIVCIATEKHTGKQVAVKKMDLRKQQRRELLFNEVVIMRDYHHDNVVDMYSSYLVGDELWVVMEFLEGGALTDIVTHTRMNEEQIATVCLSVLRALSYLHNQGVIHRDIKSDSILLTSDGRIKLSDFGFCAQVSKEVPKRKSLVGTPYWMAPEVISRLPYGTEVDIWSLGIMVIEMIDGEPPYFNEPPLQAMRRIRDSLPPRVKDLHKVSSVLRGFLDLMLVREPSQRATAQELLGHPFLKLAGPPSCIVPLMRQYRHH

Sample 1 — observed: enzyme activity; action: inhibitor; tested at: 0.5 µM; baseline: control
Compound: O=C1NC(=O)c2c1c1c3ccccc3n3c1c1c2c2ccccc2n1[C@H]1CC[C@@H]3O1
target | remaining activity [%]
Dual specificity tyrosine-phosphorylation-regulated kinase 1A (DYRK1A, Homo sapiens, UniProt Q13627) | 8.74
Serine/threonine-protein kinase PAK 5 (PAK5, Homo sapiens, UniProt Q9P286) | 64.7
Serine/threonine-protein kinase BRSK2 (BRSK2, Homo sapiens, UniProt Q8IWQ3) | 13.6
Serine/threonine-protein kinase PAK 4 (PAK4, Homo sapiens, UniProt O96013) | 75.3

Sample 2 — observed: peptide-MHC binding; form: peptide; tested at: concentration not given
Target: HLA class I histocompatibility antigen, C alpha chain, allele C*04:01 (Homo sapiens, UniProt P10321)
Sequence | binding
VLYHRYNLV | inactive
RMMGVKYLM | inactive
YIISTHYQF | inactive
RPRLHSISF | inactive
HYNAFHWAI | inactive
KAMRPWQSF | inactive
FYADPKRYF | inactive
HTLESPVEF | inactive
YTGAMTSKF | inactive
SEMGANFKA | inactive
SSDDFALIV | inactive
RARRLRRAL | inactive
VEYHYTFYI | inactive
RYDKSAADL | inactive
LEMNDAPTA | inactive
YFIFVRAIL | inactive
YPFHIFYPV | inactive
RLYQYSFAK | inactive
FQMGGIGPM | inactive
TFDVAPSRL | active
MGAGLVFPI | inactive
SERFINYAI | inactive
HADDIPVPV | inactive
MQIRGFVYF | inactive
ISDPLTSGL | inactive

Sample 3 — technique: RNA Bind-n-Seq; form: RNA; medium: in vitro; tested at: not given; baseline: input RNA pool; direction: higher = stronger binding
Target: RING finger protein unkempt homolog, zinc fingers 1-6, GST-SBP tag (UNK, Homo sapiens, UniProt Q9C0B0, residues 30-357)
UniProt Q9C0B0, sequence (30-357, looked up): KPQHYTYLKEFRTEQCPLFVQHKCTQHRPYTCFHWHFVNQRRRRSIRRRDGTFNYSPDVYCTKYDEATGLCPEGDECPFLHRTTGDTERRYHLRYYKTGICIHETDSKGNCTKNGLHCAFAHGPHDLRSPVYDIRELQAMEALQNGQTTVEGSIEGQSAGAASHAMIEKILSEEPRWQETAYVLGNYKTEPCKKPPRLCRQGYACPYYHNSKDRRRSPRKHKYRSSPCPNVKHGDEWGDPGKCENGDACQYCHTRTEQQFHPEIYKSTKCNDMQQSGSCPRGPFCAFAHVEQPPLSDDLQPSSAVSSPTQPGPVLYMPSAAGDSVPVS
Setting: RNA with constant flanks, human-mouse chimeric sites, ends assumed
Oligonucleotide | bound/input enrichment [ratio]
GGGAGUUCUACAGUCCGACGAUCAGAGAUAAGACAUCCAGGAACAUGCGAGGCUCCCGGAUGAAUGGGUUGCCUAGCCCCACUCAUAGUGCCCACUGUAGCUUCUACCGAACCAGAACCUUGCAGGCACUGAGUAAUGAGAAGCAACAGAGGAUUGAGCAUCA | 0.12
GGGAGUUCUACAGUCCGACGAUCUCCUUGGACCCCAGUCAUAUAGGUGACCUGCAGAAAGCAGACACCAGUAGUCAAGGUGCUUUAGUGUUUCUCUCAAAGGACUACGAAAUAGAAAAUCAAAAUCCCCUGGCCUCUCCUACGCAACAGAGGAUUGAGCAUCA | 2.37
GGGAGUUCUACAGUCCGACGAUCUCAACAGACAACAUCAAAUACCAGCCUAAAGGGGGGCAGGUACAAAUUGUUACCAAGAAGAUAGACUUAAGCCAUGUGACAUCCAAAUGUGGCUCUCUGAAGAACAUCCGCCACAGGCCACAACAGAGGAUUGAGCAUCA | 0.399
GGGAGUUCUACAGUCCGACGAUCGAUCAUGAACCACCAUCAGAAAUGAAGAUGAGAUUACCCAGACGAGCCAAAACAGCUGCGCUACAGAAAAGUAAACUUUAACCUUGCCCAAUUUCUCAUGAAGAUACAAGUUAAGAGAGCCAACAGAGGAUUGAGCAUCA | 0.382
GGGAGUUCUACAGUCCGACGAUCAUCAAGUACUUUGGGGAUAUUAUUAGCGUGGGACAGAGACUGUUGCAAGGAGCUCGGAUCUUAGGGAUUCCAGUUAUCAUAACGGAACAAUACCCCAAAGGACUUGGCAGCACCGUUCAACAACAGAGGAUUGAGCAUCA | 0.235
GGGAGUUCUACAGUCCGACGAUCUAAGUUAUUUUGUACAGUAAGUUAUUUUCUUAACAUUUUUAUAUUGCCAUGUUUAUUUUGUUUGGGUAAUUUGGUUCAUUAAGUACAUAGCUAAGGUAAUGAACAUCGUAAUUAUAGAUUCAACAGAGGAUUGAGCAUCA | 3.33
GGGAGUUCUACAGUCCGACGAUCUAAGUUAAGCUUUUAAUCUUUGUAAAUUCUUAACAUUUUUAUAUUGCCAUGUUUAUUUUUUUUAGAUAAUUUGGUUCAUUAAGUACAUAGCUAAGGUAAUGAACAUCUUUUUCAGUAAUUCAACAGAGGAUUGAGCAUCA | 8.22
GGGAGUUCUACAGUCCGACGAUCAACUUCGUGCAUCGGUUUCCUUUUGUAGCUGUUUCAAUUGGCUUCCUUGUGAAUAAAGAGAUGGAGUUUGGAAUUGUGUACAGCUGUGUGGAAGGCAAGAUGUACACCGGCAGGAAAGGGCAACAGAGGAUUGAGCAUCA | 0.35

Sample 4 — technique: competition with immobilised ligand; tested at: 1 µM
Structure (SMILES): Cn1cncc1[C@](O)(COc1ccc(C#N)cc1-c1ccc(OC(F)(F)F)cc1)c1ccc(C#N)cc1
target | observed | remaining binding [%]
Atypical kinase COQ8A, mitochondrial (COQ8A, Homo sapiens, UniProt Q8NI60) | cell-free assay | 92
Mast/stem cell growth factor receptor Kit (KIT, Homo sapiens, UniProt P10721, T670I/V559D) | cell-free assay | 84
Mitogen-activated protein kinase kinase kinase 12 (MAP3K12, Homo sapiens, UniProt Q12852) | cell-free assay | 100
Serine/threonine-protein kinase Nek10 (NEK10, Homo sapiens, UniProt Q6ZWH5) | cell-free assay | 83
Serine/threonine-protein kinase PLK3 (PLK3, Homo sapiens, UniProt Q9H4B4) | cell-free assay | 89
Vascular endothelial growth factor receptor 3 (FLT4, Homo sapiens, UniProt P35916) | cell-free assay | 77
Tyrosine-protein kinase Srms (SRMS, Homo sapiens, UniProt Q9H3Y6) | cell-free assay | 79
Macrophage colony-stimulating factor 1 receptor (CSF1R, Homo sapiens, UniProt P07333) | cell-free assay | 94
Activin receptor type-1-like (ACVRL1, Homo sapiens, UniProt P37023) | binding | 100
Tyrosine-protein kinase ABL1, phosphorylated (ABL1, Homo sapiens, UniProt P00519, M351T) | cell-free assay | 100
Mitogen-activated protein kinase kinase kinase 5 (MAP3K5, Homo sapiens, UniProt Q99683) | cell-free assay | 77
Receptor-interacting serine/threonine-protein kinase 2 (RIPK2, Homo sapiens, UniProt O43353) | cell-free assay | 100
Casein kinase I isoform gamma-1 (CSNK1G1, Homo sapiens, UniProt Q9HCP0) | cell-free assay | 90

A few entries again (sample 4):
target | observed | remaining binding [%]
Serine/threonine-protein kinase PLK3 (PLK3, Homo sapiens, UniProt Q9H4B4) | cell-free assay | 89
Mitogen-activated protein kinase kinase kinase 12 (MAP3K12, Homo sapiens, UniProt Q12852) | cell-free assay | 100
Serine/threonine-protein kinase Nek10 (NEK10, Homo sapiens, UniProt Q6ZWH5) | cell-free assay | 83
Activin receptor type-1-like (ACVRL1, Homo sapiens, UniProt P37023) | binding | 100
Tyrosine-protein kinase Srms (SRMS, Homo sapiens, UniProt Q9H3Y6) | cell-free assay | 79
Casein kinase I isoform gamma-1 (CSNK1G1, Homo sapiens, UniProt Q9HCP0) | cell-free assay | 90
Tyrosine-protein kinase ABL1, phosphorylated (ABL1, Homo sapiens, UniProt P00519, M351T) | cell-free assay | 100
Macrophage colony-stimulating factor 1 receptor (CSF1R, Homo sapiens, UniProt P07333) | cell-free assay | 94
